Experimental data pooled from the literature.
Compare with care: the assays were run in different laboratories. Numbers after ± are the reported error.

CC(=O)OCCC(O)(CF)CC(=O)NCc1ccccc1 (stereo not drawn) gave a half-life of 0.5 h (human plasma; 4 mM, 37 °C).
COc1ccc([C@@H]2Sc3ccccc3N(CCN(C)C)C(=O)[C@@H]2OC(C)=O)cc1 gave a half-life of 293 h (whole body; oral, medium dose, depuration phase).
C[C@]12C=CC(=O)C=C1CC[C@@H]1[C@@H]2[C@@H](O)C[C@@]2(C)[C@H]1C[C@H]1O[C@@H](C3CCCCC3)O[C@]12C(=O)CO has a half-life of 3.19 ± 0.22 h (children with asthma, serum; inhaled, 160 µg ciclesonide, day 7, HFA-MDI with spacer).
The half-life of COc1ccc2[nH]c([S+]([O-])Cc3ncc(C)c(OC)c3C)nc2c1 (stereo not drawn) is reported as 2.52 ± 0.79 h (healthy Chinese, CYP2C19 poor metabolizers, plasma; oral, 20 mg single dose).
With NC(=O)c1cnc2[nH]ccc2c1N[C@@H]1[C@@H]2CC3C[C@H]1C[C@@](O)(C3)C2 the half-life was 10.4 h (Japanese, normal hepatic function, plasma; oral, 150 mg single dose, mean).
For O=C1CC(=O)N(CCc2ccccc2)C(=O)N1CCc1ccccc1, the half-life was 1.07 h (human liver microsomes).
For N[C@@H](Cc1ccccc1)C(=O)NCC(=O)OC[C@H]1O[C@@H](n2cc(F)c(=O)[nH]c2=O)C[C@@H]1O, the half-life was 2.38 ± 0.358 h (human pancreas homogenate; pH 7.4, 37 °C, protein 500 µg/mL).
Cn1cnnc1SCC(=O)C12CC3CC(CC(C3)C1)C2 gave a half-life of greater than 1 h (metabolic stability; human liver microsomes).
For COc1cc(C(=O)c2cccc(-c3ccc(C)c(O)c3)n2)cc(OC)c1OC, the half-life was less than 0.167 h (human liver microsomes; 10 µM, pH 7.4, together with: NADPH).
With O=C(CCc1ccccc1)N[C@H]1CNC1=O the half-life was greater than 24 h (PBS, 10% MeCN; 1 µM, pH 7.4, 37 °C).
With CC(C)(CC(=O)N1CCCC1)NCC(=O)N1C[C@@H](F)C[C@H]1C#N the half-life was 5 to 12.3 h (Chinese type 2 diabetes patients, plasma; oral, 50, 100, 200 mg, single dose, range of group means).
With COc1cc(OC)c(/C=C/S(=O)(=O)Cc2ccc(OC)c(NCC(=O)O)c2)c(OC)c1 the half-life was 1.99 ± 0.47 h (cancer patients, phase I, plasma; oral, 700 mg twice daily, day 21 cycle 1).
With CCCCCCCCC(=O)N[C@H]1CNC1=O the half-life was greater than 24 h (PBS, 10% MeCN; 1 µM, pH 7.4, 37 °C).
Cc1ccc(NC(=O)c2ccc(CN3CCN(C)CC3)cc2)cc1Nc1nccc(-c2cncc(-c3oncc3C)c2)n1 has a half-life of 11.3 h (Parkinson's disease patients, plasma; oral, 100 mg once daily, day 1, 7-day dosing, mean).
With CS(=O)(=O)n1cc2c(n1)CN([C@H]1CO[C@H](c3cc(F)ccc3F)[C@@H](N)C1)C2 the half-life was 144 h (healthy Japanese men, plasma; oral, 10 mg once weekly, day 15).
For CC(C)[C@@H](N)C(=O)OC[C@H]1O[C@@H](n2cc(F)c(=O)[nH]c2=O)C[C@@H]1O, the half-life was 5.81 ± 1.07 h (human pancreas homogenate; pH 7.4, 37 °C, protein 500 µg/mL).
CN(C(=O)[C@H](Cc1ccccc1)NC(=O)CNC(=O)c1ccccc1)c1ccc(Cl)cc1 gave a half-life of greater than 2 h (human liver microsomes; 1 µM, pH 7.4, together with: cobicistat 0.5 µM).
With Cn1cnc2c(F)c(Nc3ccc(Br)cc3Cl)c(C(=O)NOCCO)cc21 the half-life was 5.81 h (ESRD on hemodialysis, plasma; oral, 50 mg single dose, dosed 1 h before dialysis).
The half-life of O=C(C1CC1)n1cc2c(n1)CCC(Br)(Br)C2=O is reported as 4 h (aqueous buffer; spontaneous hydrolysis).
CCc1cc2c(cc1N1CCC(N3CCOCC3)CC1)C(C)(C)c1[nH]c3cc(C#N)ccc3c1C2=O has a half-life of 40.4 h (severe hepatic impairment patients, plasma, total; oral, 300 mg single dose, fed).
CC(C)[C@H](N)C(=O)N[C@@H](Cc1ccccc1)C(=O)OC[C@H]1O[C@@H](n2cc(F)c(=O)[nH]c2=O)C[C@@H]1O has a half-life of 0.897 ± 0.0283 h (human small intestine homogenate; pH 7.4, 37 °C, protein 1000 µg/mL).
CN(Cc1cc(Cl)cc(Cl)c1)Cc1cc(=O)[nH][nH]1.Cl has a half-life of 0.85 h (mouse liver microsomes; together with: NADPH).
With CCOc1cc([C@@H](CS(C)(=O)=O)N2C(=O)c3cccc(NC(C)=O)c3C2=O)ccc1O[C@@H]1O[C@H](C(=O)O)[C@@H](O)[C@H](O)[C@H]1O the half-life was 14.5 h (mild renal impairment patients, plasma; oral, 30 mg of apremilast).
O=C(NO)c1cc(F)cc(OS(=O)(=O)Oc2ccccc2)c1 gave a half-life of greater than 20 h (buffer with or without glutathione; 50 µM, pH 7.4, 37 °C, together with: glutathione 2 mM).
Cc1cn(CC(=O)N[C@@H](Cc2ccccc2)C(=O)N(C)c2ccc(Cl)cc2)c(=O)[nH]c1=O gave a half-life of greater than 2 h (mouse liver microsomes; 1 µM, pH 7.4, together with: cobicistat 0.5 µM).
With NC(=O)c1cnc2[nH]ccc2c1N[C@@H]1[C@@H]2CC3C[C@H]1C[C@@](O)(C3)C2 the half-life was 6.9 h (healthy Caucasian men, plasma; oral, 200 mg, single dose fasted).
CC(C)C[C@H](N)C(=O)OC[C@H]1O[C@@H](n2cc(F)c(=O)[nH]c2=O)C[C@@H]1O has a half-life of 0.28 ± 0.00167 h (human pancreas homogenate; pH 7.4, 37 °C, protein 500 µg/mL).
COc1ccc2c3c1O[C@H]1C[C@@H](OC(=O)c4ccccc4)C=C[C@@]31CCN(C)C2 gave a half-life of 2.64 h (healthy elderly men, plasma; intranasal, 22 mg, single dose).
For CCC(CC)COC(=O)[C@H](C)N[P@](=O)(OC[C@H]1O[C@@](C#N)(c2ccc3c(N)ncnn23)[C@H](O)[C@@H]1O)Oc1ccccc1, the half-life was 0.0167 h (CD-1 mouse liver microsomes; 1 µM, pH 7.4, without NADPH).
For CCOc1ccc(Cc2cc([C@@H]3S[C@H](CO)[C@@H](O)[C@H](O)[C@H]3O)c(OC)cc2C)cc1, the half-life was 11 ± 1.49 h (Japanese type 2 diabetes patients, plasma; oral, 5 mg single dose, eGFR 30-44 mL/min/1.73 m^2).
CC(C(=O)O)c1ccc(-c2ccccc2)c(F)c1 (stereo not drawn) gave a half-life of 3.9 ± 1.1 h (healthy volunteers, plasma; oral, 100 mg, arithmetic mean, together with: control beverage 250 mL).
For CCCCCCNC(=O)n1ccc(=O)[nH]c1=O, the half-life was 0.0583 h (mouse plasma; 0.1 mM, 37 °C).
The half-life of O=C1Nc2ccccc2C(=O)CCc2ccccc21 is reported as 5.9 h (mouse blood; 1 µM, 6 h incubation, 37 °C).
CCC(CC)O[C@@H]1C=C(C(=O)O)C[C@H](N)[C@H]1NC(C)=O has a half-life of 7.62 ± 1.07 h (healthy Indian subjects, fed, plasma; oral, 75 mg oseltamivir phosphate, test capsule formulation).
With CC(C)(c1ccc(O)cc1)c1ccc(O)cc1 the half-life was 3.25 h (GC-MS; exposure tank water; 5000 ng/L, 27 °C).
For CC(C)C[C@H](NC(=O)[C@H](CO)NC(=O)[C@H](CO)NC(=O)[C@H](CC(C)C)NC(=O)[C@@H](NC(=O)[C@@H]1CCCN1C(=O)[C@H](Cc1c[nH]c2ccccc12)NC(=O)[C@H](Cc1ccc(O)cc1)NC(=O)[C@@H]1CCCN1C(=O)[C@H](CC(C)C)NC(=O)[C@H](Cc1ccc(O)cc1)NC(=O)[C@@H](N)CCCCN)C(C)C)C(=O)O, the half-life was 8 to 12 h (residual EphA4 binding inhibition; PC-3 conditioned medium; 100 µM, 37 °C).

Excerpt of the above:
For N[C@@H](Cc1ccccc1)C(=O)NCC(=O)OC[C@H]1O[C@@H](n2cc(F)c(=O)[nH]c2=O)C[C@@H]1O, the half-life was 2.38 ± 0.358 h (human pancreas homogenate; pH 7.4, 37 °C, protein 500 µg/mL).
Cn1cnnc1SCC(=O)C12CC3CC(CC(C3)C1)C2 gave a half-life of greater than 1 h (metabolic stability; human liver microsomes).
For COc1cc(C(=O)c2cccc(-c3ccc(C)c(O)c3)n2)cc(OC)c1OC, the half-life was less than 0.167 h (human liver microsomes; 10 µM, pH 7.4, together with: NADPH).
